Measured values of several laboratories.
Several values in a cell are separate wells, animals, samples, runs or records. ± gives the spread as reported.

SMILES	cell line	assay	setting	scale	endpoint	value
O=c1[nH]nc(OCCCc2ccc(Cl)cc2)c(NCc2cccnc2)c1Br	HEK-293T	RNA-seq GSEA, measured: HALLMARK_MYC_TARGETS_V1	concentration not given	direction not given	normalized enrichment score	-1.49
CCNC(=O)/C=C/c1cccc(Br)c1	THP-1	pyroptotic LDH release	2 µM, 40 min, together with: LPS then nigericin	–	inhibition	20.8%
CC(C)(C)NC(=O)c1cncn1C1CCN(c2ccc(-c3nnc(C(F)(F)F)o3)cn2)CC1	HDMEC	qPCR, measured: GILZ	concentration not given, unit not given	relative to: DMSO	mRNA level	0.501
COc1ccc(NC(=S)N/N=C/c2cccc3cc4ccccc4nc23)cc1	HeLa	annexin V/PI flow cytometry	concentration not given, 48 h, together with: N-acetylcysteine	–	necrotic cells	3.2 ± 0.13%
COc1cnc2cccc(N3CCc4c(cc(Cn5ccnc5C)cc4-c4cn(C)nc4C(F)(F)F)C3=O)c2c1	NCI-H1975	cell growth, inhibitor	120 h	–	EC50	0.28 µM
O=C(O)CCc1ccc(O)cc1	Caco-2/THP-1 co-culture	TEER	0.25 µg/mL, together with: LPS 250 ng/mL	relative to: control	transepithelial electrical resistance	75.3 ± 8.2%
CCCCN1CCN(c2ccc3[nH]c(-c4ccc5[nH]c(-c6cc(OC)c(OC)c(OC)c6)nc5c4)nc3c2)CC1	RXF 393	SRB	10 µM, 48 h	–	growth percent	-43.4%
C=CC1=C(C)c2cc3[n-]c(cc4nc(cc5[n-]c(cc1n2)c(C)c5C=C)C(C)=C4CCC(=O)O)c(CCC(=O)O)c3C.[Zn+2]	SH-SY5Y	RNA-seq, measured: SPOCD1 mRNA	5 µM, 5 h	relative to: untreated cells	fold change	4.6
Cc1ccc(NC(=O)C2(c3ccc4c(c3)OC(F)(F)O4)CC2)nc1-c1cccc(C(=O)O)c1	CFBE41o- ΔF508-CFTR	SPQ chloride transport	20 µM	–	CFTR activity increase	≤ 27%
Cc1c(C)c2c(c(C)c1O)CCC(C)(COc1ccc(CC3SC(=O)NC3=O)cc1)O2 (centres unmarked)	HepG2	MTT, measured: MTT response	24 h, distribution mode 1	–	point of departure	0.339 µM
Cn1c(Nc2nc3ccc(C(F)(F)F)cc3s2)nc2cc(C(=O)NCCOCCO)ccc21	SH-SY5Y	RNA-seq, measured: SERPINE1 mRNA	5 µM, 5 h	relative to: untreated cells	fold change	3.91
CC(C)(C)NC(=O)N[C@H](C(=O)N1C[C@H]2[C@@H]([C@H]1C(=O)NC(CC1CCC1)C(=O)C(N)=O)C2(C)C)C(C)(C)C (some centres unmarked)	THP-1	pyroptotic LDH release	2 µM, 40 min, together with: LPS then nigericin	–	inhibition	4.26%
C=C1C(=O)O[C@H]2[C@H]1CC/C(C)=C/CC[C@@]1(C)O[C@@H]21	human iPSC cardiomyocytes	plate-normalised	concentration not given, hit retest	relative to: vehicle controls, SDs below control	MyBP-C level change	14.4 SD
CCn1cc(-c2cc(Cn3ccoc3=N)cc3c2CCN([C@@H](C)c2cc(OC)ccn2)C3=O)c(C(F)(F)F)n1	JHUEM7	cell growth	120 h	–	EC50	11.8 µM
COc1ccc(-n2nc(C(C)=O)s/c2=N\N=C(/C)c2ccc(NC(=O)c3ccc(C)cc3)cc2)cc1	MCF7	–	2.5 µM	–	viability	2.98%
O=C(c1cc(Cc2n[nH]c(=O)c3ccccc23)ccc1F)N1CCN(C(=O)C2CC2)CC1	MDA-MB-436 BRCA1-mutant	colony formation	20 nM	relative to: vehicle (DMSO)	colony survival	48.7%
OC[C@H]1O[C@@H](Oc2ccc(O)cc2)[C@H](O)[C@@H](O)[C@@H]1O	THP-1	pyroptotic LDH release	2 µM, 40 min, together with: LPS then nigericin	–	inhibition	-24.7%
COc1c(O[C@@H]2O[C@H](CO)[C@@H](O)[C@H](O)[C@H]2O)c(C)cc2c1C(=O)c1c(O)cccc1C2=O	HK-2 co-cultured with HepaRG	MTT	16.67 µM, 48 h	relative to: untreated control	cell viability	86.5 ± 6.03%
O=C(COP(=O)(O)O)[C@@H](O)[C@H](O)[C@H](O)COP(=O)(O)O	HepG2 PGAM1 knockout	–	concentration not given	–	glucose consumption	1.1 mM and 1.45 mM and 1.32 mM
CC(C)NCC(O)c1ccc(O)c(O)c1 (centres unmarked)	mouse ventricular cardiomyocytes	–	dose not given, 0.235 s	–	sarcomere length	1.8 µm
Cn1cc(-c2ccc(-c3cncc(Cl)c3N3CCC4(CCNC4=O)CC3)cc2)cn1	COLO 205	microarray, measured: NRF2	concentration not given, 2 h	relative to: untreated cells	fold change in expression	2.1
CCn1c(=O)c(-c2cc(NC(=O)Nc3ccccc3)c(F)cc2Br)cc2cnc(NC)cc21	THP-1	pyroptotic LDH release	2 µM, 40 min, together with: LPS then nigericin	–	inhibition	-0.29%
O=C(O)Cc1ccc(O)cc1	coculture, Caco-2, THP-1	ELISA	50 ng/mL, 8 h, together with: LPS, IFNγ, ATP	relative to: untreated control	IL-1β level	6.4 ± 1 fold change
CCN(CCO)CCCC(C)Nc1ccnc2cc(Cl)ccc12 (centres unmarked)	human PBMC	ISG expression, qRT-PCR, measured: 5-ISG panel	1000 nM, together with: ssRNA	–	inhibition	18 ± 4%
N[C@@H]1c2ccccc2C[C@@H]1O	THP-1	pyroptotic LDH release	2 µM, 40 min, together with: LPS then nigericin	–	inhibition	10.7%
C[C@H]1[C@H](C)CC[C@]2(C)CC[C@]3(C)C(=CC(=O)[C@@H]4[C@@]5(C)CC[C@@H](O)[C@](C)(C(=O)NCc6cn(-c7cccc(Br)c7)nn6)[C@@H]5CC[C@]43C)[C@H]12	human PBMCs, ConA-activated	flow cytometry	5 µM, 24 h	relative to: T cells	CD8+ T cells	39%
Cc1cc(Nc2ncc(Cl)c(Nc3ccccc3S(=O)(=O)C(C)C)n2)c(OC(C)C)cc1C1CCNCC1	CLB-GE	phosphoproteomics LC-MS/MS, measured: CCDC88C phosphorylation	200 nM, 60 min	relative to: untreated	log2 fold change	-4.52

SMILES	cell line	assay	setting	scale	endpoint	value
COc1cc(CCC(=O)O)ccc1O	Caco-2/THP-1 co-culture	TEER	concentration not given, together with: LPS 50 ng/mL	relative to: control	transepithelial electrical resistance	88.6 ± 6.5%
CCc1c(-c2ccccc2)c(-c2ccccc2)nn1-c1ccccc1-c1cccc(OCC(=O)O)c1	mouse osteoclasts	RT-qPCR, measured: Trap	1 µM, unit not given, together with: M-CSF plus RANKL	relative to: bone marrow macrophages	mRNA level	3.04 and 2 and 3.01
CCNc1ncn(Cc2ccc(OC)c(OC3CCCC3)c2)c2nc(C(C)C)nc1-2	HEK293T ATF4-FLuc reporter	ATF4 reporter gene, activator, luciferase reporter	–	–	EC50	> 9.96 µM
COc1cc(/C=C/C(=O)N2CCC=CC2=O)cc(OC)c1OC	MDA-MB-468	qRT-PCR, measured: FOXM1	30 µM, 6 h	relative to: time zero	mRNA level	76.9 ± 4.8%
O=C(Nc1nc2ccc(OCc3ccccc3)cc2[nH]1)c1cn2cc(Cl)ccc2n1	HEK293T ATF4-FLuc reporter	ATF4 reporter gene, activator, luciferase reporter	–	–	EC50	> 9.96 µM
Nc1cccc2c1C(=O)N(C1CCC(=O)NC1=O)C2=O (centres unmarked)	bone marrow CD138+ myeloma cells	XTT	0.8 µM, phenol red-free RPMI	–	viability	104%
CC/C(=N\NC(=O)NCc1cccc(O)c1)c1ccc(O)c(C)c1O	SK-OV-3	gene expression, microarray, measured: THBS1	10 µM, 24 h	relative to: DMSO	log ratio	3.73
O=C(/C=C/C=C/C=C/C1CCCCC1)NC1=C[C@@](O)(/C=C/C=C/C=C/C(=O)NC2=C(O)CCC2=O)[C@@H]2O[C@@H]2C1=O	NCI-H2286	cell growth, CellTiter-Glo	78 h	–	GI50	9.84 µM
O=C(NO)c1cnc(N2CCN(S(=O)(=O)c3ccc4ccccc4c3)CC2)nc1	HEK293T ATF4-FLuc reporter	ATF4 reporter gene, activator, luciferase reporter	–	–	EC50	0.373 µM
CCCCN1CCN(c2ccc3[nH]c(-c4ccc5[nH]c(-c6ccc(C(F)(F)F)cc6)nc5c4)nc3c2)CC1	RXF 393	SRB	10 µM, 48 h	–	growth percent	-82%
CNC(=O)[C@H]1O[C@@H](n2cnc3c(NCc4cccc(I)c4)nc(Cl)nc32)[C@H](O)[C@@H]1O	HEK293T ATF4-FLuc reporter	ATF4 reporter gene, activator, luciferase reporter	–	–	EC50	3.71 µM
CC(=O)OCC1=CO[C@@H](OC(=O)CC(C)C)[C@H]2C1=C[C@H](OC(=O)CC(C)(C)OC(C)=O)[C@]21CO1	THP-1	pyroptotic LDH release	2 µM, 40 min, together with: LPS then nigericin	–	inhibition	72.6%
CCn1cc(-c2cc(Cn3ccnc3)cc3c2CCN([C@H](c2cc(OC)ccn2)C2CC2)C3=O)c(C(F)(F)F)n1	SW48	cell growth, inhibitor	120 h	–	EC50	0.634 µM
CSc1nc(-c2ccc(Cl)cc2)c2c(NC(=O)c3ccccc3)nnc-2[nH]1	RXF 393	SRB	10 µM, NCI60 single-dose screen	relative to: untreated	cell growth	101%
CC(C)(O)c1coc(S(=O)(=O)NC(=O)Nc2c3c(cc4c2CCC4)CCC3)c1	THP-1 wild type, LPS-primed	inhibitor	25 µM, 2 h, together with: nigericin 6.25 µM	–	LDH release	16% and 20.1% and 15.1%
COc1c(O[C@@H]2O[C@H](CO)[C@@H](O)[C@H](O)[C@H]2O)cc2c(c1O)C(=O)c1c(cc(C)c(O)c1OC)C2=O	HK-2 co-cultured with HepaRG	MTT	133.33 µM, 24 h	relative to: untreated control	cell viability	97.6 ± 11.2%
O=C(O)c1cc(O)c(O)c(O)c1	Caco-2/THP-1 co-culture	TEER	0.1 µg/mL, together with: LPS 100 ng/mL	relative to: control	transepithelial electrical resistance	74.8 ± 3.6%
O=C(O)CNC(=O)c1ncc(-c2cccc(Cl)c2)cc1O	THP-1	pyroptotic LDH release	2 µM, 40 min, together with: LPS then nigericin	–	inhibition	38%
CC(C)=CCNc1ncnc2c1ncn2[C@@H]1O[C@H](CO)[C@@H](O)[C@H]1O	HEK293T ATF4-FLuc reporter	ATF4 reporter gene, activator, luciferase reporter	–	–	EC50	> 9.96 µM
O=C(O)CCc1cccc(O)c1	Caco-2/THP-1 co-culture	TEER	concentration not given, together with: LPS 250 ng/mL	relative to: control	transepithelial electrical resistance	73.5 ± 6.2%
CCN(CC)C(=O)c1cccnc1	THP-1	pyroptotic LDH release	2 µM, 40 min, together with: LPS then nigericin	–	inhibition	45.4%
CCc1cnc(N2CCC(c3nc(COc4ccc(-n5cnnn5)cc4)cs3)CC2)nc1	HEK293T	RNA-seq, measured: MTHFR mRNA	10 µM, 6 h	relative to: vehicle	log2 fold change	0.266
COc1cc(O)c2c(=O)c(O)c(-c3ccc(O)c(O)c3)oc2c1	coculture, Caco-2, THP-1	ELISA	50 ng/mL, 8 h, together with: LPS, IFNγ, ATP	relative to: untreated control	IL-1β level	7.7 ± 1.3 fold change
O=C(Nc1nccs1)c1cnn(-c2ccccc2)c1-n1cccc1	human monocytes	phagocytosis of anti-D RBCs	5 µM, lab-synthesized sample	–	inhibition	42.1 ± 3.9%
CC(C)(C)OC(=O)N1CCC(CNC(=O)c2cnc(Nc3cccc(Cl)c3)nc2C(F)(F)F)CC1	HEK293T ATF4-FLuc reporter	ATF4 reporter gene, activator, luciferase reporter	–	–	EC50	> 9.96 µM
COc1cc(-c2oc3cc(O)cc(O)c3c(=O)c2O)ccc1O	Caco-2/THP-1 co-culture	–	concentration not given, together with: LPS 250 ng/mL	–	kynurenine level	98.3 ± 1.1 % change
